Assay results of several laboratories.
Every numbered part comes from another study and shows a few of its results, in no order.
Chain of UniProt P30530 (whole entry, looked up): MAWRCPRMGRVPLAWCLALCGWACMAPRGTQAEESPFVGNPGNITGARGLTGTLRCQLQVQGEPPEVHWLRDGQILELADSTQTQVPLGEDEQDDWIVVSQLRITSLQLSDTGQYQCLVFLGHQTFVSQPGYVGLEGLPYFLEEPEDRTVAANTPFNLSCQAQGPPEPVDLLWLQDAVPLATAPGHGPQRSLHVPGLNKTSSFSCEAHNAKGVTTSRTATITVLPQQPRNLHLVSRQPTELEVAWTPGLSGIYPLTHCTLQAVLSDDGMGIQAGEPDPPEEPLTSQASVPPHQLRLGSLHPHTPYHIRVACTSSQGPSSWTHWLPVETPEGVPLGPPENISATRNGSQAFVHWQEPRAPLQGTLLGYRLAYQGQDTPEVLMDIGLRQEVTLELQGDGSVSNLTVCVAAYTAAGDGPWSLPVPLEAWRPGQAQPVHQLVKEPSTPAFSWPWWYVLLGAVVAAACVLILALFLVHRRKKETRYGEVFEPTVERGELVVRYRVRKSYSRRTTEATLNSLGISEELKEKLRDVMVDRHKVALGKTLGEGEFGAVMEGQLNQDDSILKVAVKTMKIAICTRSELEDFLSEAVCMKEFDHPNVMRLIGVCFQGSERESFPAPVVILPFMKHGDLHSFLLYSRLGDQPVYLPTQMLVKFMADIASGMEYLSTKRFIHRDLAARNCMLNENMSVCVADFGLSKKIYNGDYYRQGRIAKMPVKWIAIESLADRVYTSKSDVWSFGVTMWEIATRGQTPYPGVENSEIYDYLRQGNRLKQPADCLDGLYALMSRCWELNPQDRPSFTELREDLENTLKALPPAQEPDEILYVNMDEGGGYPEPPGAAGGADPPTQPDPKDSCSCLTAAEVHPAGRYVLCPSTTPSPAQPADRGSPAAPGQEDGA
Chain of UniProt Q8TBX8 (whole entry, looked up): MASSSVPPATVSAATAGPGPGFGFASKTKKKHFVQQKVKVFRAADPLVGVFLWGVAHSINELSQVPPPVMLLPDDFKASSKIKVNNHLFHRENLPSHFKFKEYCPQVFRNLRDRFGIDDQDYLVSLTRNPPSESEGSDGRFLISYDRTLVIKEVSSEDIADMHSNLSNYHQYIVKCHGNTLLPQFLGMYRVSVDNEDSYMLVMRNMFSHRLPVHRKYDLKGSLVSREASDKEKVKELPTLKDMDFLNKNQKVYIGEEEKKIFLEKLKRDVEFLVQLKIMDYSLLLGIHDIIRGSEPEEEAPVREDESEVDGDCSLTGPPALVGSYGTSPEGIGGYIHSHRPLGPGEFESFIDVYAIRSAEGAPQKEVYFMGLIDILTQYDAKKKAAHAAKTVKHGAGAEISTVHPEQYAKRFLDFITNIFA
Chain of UniProt Q96PF2 (whole entry, looked up): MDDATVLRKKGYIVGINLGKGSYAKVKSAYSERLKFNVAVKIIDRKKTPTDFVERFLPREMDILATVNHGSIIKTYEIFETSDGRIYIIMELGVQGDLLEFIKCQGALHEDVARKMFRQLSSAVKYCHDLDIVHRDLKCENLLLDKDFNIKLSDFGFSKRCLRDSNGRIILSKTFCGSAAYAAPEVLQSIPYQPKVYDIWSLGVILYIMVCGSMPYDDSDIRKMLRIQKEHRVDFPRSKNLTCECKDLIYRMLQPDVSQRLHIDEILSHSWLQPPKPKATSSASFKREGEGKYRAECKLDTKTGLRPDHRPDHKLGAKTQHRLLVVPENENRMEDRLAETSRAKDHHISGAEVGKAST
Chain of UniProt Q9BYP7 (whole entry, looked up): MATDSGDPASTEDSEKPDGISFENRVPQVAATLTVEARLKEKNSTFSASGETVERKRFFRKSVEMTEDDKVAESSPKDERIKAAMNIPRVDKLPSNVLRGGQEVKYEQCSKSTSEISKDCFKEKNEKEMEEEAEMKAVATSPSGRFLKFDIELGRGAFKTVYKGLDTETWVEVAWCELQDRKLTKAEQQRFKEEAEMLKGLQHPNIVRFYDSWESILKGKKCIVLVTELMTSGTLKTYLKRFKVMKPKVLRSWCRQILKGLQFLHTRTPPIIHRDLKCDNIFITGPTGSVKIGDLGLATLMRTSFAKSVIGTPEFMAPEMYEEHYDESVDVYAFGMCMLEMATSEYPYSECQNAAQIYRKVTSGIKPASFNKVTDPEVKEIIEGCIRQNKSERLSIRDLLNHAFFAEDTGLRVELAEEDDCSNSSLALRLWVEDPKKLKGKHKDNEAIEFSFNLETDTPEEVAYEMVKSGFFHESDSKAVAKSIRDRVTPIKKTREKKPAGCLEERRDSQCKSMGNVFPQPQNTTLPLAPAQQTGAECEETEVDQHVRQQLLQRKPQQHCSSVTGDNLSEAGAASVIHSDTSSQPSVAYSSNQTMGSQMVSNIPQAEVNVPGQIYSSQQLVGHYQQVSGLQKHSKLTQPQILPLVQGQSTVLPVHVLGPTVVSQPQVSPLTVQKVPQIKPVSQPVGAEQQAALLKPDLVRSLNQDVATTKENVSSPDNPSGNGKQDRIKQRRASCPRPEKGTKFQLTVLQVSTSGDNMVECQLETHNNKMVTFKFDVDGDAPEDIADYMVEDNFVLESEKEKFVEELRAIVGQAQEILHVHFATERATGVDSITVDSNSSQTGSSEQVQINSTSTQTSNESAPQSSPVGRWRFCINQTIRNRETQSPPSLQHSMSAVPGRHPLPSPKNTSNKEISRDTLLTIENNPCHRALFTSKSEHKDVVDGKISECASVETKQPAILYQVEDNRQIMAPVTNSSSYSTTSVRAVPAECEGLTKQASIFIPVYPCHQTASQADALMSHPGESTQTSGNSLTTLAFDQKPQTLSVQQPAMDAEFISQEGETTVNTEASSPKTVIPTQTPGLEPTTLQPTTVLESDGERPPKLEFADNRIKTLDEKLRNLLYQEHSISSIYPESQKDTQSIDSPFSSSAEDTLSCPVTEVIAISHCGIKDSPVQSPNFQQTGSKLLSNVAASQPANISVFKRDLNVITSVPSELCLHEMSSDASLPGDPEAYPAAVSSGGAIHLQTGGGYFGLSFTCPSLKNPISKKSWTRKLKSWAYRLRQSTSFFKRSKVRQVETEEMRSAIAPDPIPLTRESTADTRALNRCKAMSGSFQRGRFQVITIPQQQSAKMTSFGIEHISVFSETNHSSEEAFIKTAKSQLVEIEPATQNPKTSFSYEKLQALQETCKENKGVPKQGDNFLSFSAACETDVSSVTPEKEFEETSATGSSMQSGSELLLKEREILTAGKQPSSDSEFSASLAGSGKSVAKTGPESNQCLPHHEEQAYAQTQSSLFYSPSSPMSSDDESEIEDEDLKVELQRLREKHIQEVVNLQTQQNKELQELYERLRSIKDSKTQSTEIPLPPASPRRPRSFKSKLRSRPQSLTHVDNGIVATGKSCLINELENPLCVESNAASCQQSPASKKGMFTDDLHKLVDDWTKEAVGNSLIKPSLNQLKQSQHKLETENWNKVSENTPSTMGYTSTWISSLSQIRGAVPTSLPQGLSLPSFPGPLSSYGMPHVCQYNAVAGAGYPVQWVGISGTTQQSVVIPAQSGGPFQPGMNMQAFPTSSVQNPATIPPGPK
Chain of UniProt Q15761 (whole entry, looked up): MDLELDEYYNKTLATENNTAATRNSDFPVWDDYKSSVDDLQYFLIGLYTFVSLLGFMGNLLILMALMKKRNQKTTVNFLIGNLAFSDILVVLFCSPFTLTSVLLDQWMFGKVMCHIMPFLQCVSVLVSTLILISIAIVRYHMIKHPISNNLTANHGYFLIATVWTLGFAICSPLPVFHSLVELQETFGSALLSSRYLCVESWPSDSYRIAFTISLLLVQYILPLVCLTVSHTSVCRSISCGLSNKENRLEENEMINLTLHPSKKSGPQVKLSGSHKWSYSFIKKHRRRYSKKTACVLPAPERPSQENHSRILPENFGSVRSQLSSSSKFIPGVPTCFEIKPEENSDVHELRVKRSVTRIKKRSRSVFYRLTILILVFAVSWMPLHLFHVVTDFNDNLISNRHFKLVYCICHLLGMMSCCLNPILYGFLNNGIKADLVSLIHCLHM
Chain of UniProt O96017 (whole entry, looked up): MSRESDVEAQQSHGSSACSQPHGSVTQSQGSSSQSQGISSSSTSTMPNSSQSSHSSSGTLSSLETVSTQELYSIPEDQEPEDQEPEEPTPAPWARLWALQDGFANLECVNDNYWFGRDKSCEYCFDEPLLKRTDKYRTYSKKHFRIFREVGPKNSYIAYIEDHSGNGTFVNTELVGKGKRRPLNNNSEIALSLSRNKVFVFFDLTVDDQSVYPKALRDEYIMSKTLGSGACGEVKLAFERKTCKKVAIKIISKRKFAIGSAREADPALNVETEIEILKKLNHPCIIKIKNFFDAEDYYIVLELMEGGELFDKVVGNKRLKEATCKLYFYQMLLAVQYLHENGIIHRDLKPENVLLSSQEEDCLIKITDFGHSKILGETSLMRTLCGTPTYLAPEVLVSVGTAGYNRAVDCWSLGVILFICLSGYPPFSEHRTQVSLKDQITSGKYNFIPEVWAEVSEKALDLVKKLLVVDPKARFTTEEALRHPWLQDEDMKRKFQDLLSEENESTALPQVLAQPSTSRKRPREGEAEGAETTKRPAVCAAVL
Chain of UniProt P48730 (whole entry, looked up): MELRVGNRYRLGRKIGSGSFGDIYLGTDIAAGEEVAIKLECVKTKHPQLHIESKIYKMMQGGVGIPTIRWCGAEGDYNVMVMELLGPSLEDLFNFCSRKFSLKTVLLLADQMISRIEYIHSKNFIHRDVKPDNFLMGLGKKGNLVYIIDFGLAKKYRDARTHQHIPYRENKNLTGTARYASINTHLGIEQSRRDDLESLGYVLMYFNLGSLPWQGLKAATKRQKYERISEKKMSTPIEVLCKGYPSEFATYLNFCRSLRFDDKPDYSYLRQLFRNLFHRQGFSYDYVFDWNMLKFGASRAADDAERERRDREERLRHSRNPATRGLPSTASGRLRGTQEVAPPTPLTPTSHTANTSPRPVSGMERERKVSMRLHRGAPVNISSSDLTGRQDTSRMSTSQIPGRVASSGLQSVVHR

Set 1
Organism: Sarcocystis neurona
Read-out: parasite activity
Concentration: concentration not given
| Structure (SMILES) | activity class |
| --- | --- |
| COc1ccc(C(=O)NCc2ccc(OCCN(C)C)cc2)cc1OC.Cl | inactive |
| CCOC(=O)c1ccc(OC(=O)CCCCCN=C(N)N)cc1.CS(=O)(=O)O | inactive |
| COc1cc(C[C@@H](CO)[C@H](CO)Cc2ccc(O)c(OC)c2)ccc1O | inactive |
| CN1[C@@H]2CC[C@H]1C[C@@H](OC(c1ccccc1)c1ccccc1)C2.CS(=O)(=O)O | inactive |
| Cc1sc(N)c(C(=O)c2cccc(C(F)(F)F)c2)c1C | inactive |
| Cc1cccc(CN2CCN(C(c3ccccc3)c3ccc(Cl)cc3)CC2)c1.Cl.Cl (stereo not shown) | inactive |
| CCCN[C@H]1CCc2nc(N)sc2C1.Cl | inactive |
| CC(N/C(=N\C#N)Nc1ccncc1)C(C)(C)C.O (stereo not shown) | inactive |
| CN1C(C(=O)Nc2ccccn2)=C(O)c2ccccc2S1(=O)=O.O | inactive |
| NS(=O)(=O)c1cc2c(cc1C(F)(F)F)NC(Cc1ccccc1)NS2(=O)=O (stereo not shown) | inactive |
| CC[C@@H](CO)NCCN[C@@H](CC)CO | inactive |
| CC(=O)CCCCn1cnc2c1c(=O)n(C)c(=O)n2C | inactive |
| CC1=C(C/C=C(\C)CCC[C@H](C)CCC[C@H](C)CCCC(C)C)C(=O)c2ccccc2C1=O | inactive |
| O=c1ncc(F)c[nH]1 | inactive |
| Nc1ccc2cn[nH]c2c1 | inactive |
| O=C(O)CCCc1ccccc1 | inactive |
| CNCCC(Oc1ccc(C(F)(F)F)cc1)c1ccccc1.Cl (stereo not shown) | inactive |

Set 2
Structure (SMILES): O=C(Nc1ccc(Cl)cc1)c1ccccc1NCc1ccncc1
Read-out: enzyme activity
Action: inhibitor
Concentration: 0.5 µM
Relative to: control
| target | remaining activity [%] |
| --- | --- |
| HIPK4 (Homo sapiens, UniProt Q8NE63) | 103 |
| EPHB4 (Homo sapiens, UniProt P54760) | 89.6 |
| CAMK2B (Homo sapiens, UniProt Q13554) | 93.4 |
| SRMS (Homo sapiens, UniProt Q9H3Y6) | 97.9 |
| WNK3 (Homo sapiens, UniProt Q9BYP7) | 92.9 |
| AXL (Homo sapiens, UniProt P30530) | 98.1 |
| RPS6KA6 (Homo sapiens, UniProt Q9UK32) | 104 |
| HIPK2 (Homo sapiens, UniProt Q9H2X6) | 93 |
| STK16 (Homo sapiens, UniProt O75716) | 94.1 |
| DYRK3 (Homo sapiens, UniProt O43781) | 104 |
| MAPKAPK3 (Homo sapiens, UniProt Q16644) | 91.4 |
| TSSK2 (Homo sapiens, UniProt Q96PF2) | 86.3 |
| EPHB1 (Homo sapiens, UniProt P54762) | 90.2 |
| PRKACG (Homo sapiens, UniProt P22612) | 87.4 |
| MAP4K4 (Homo sapiens, UniProt O95819) | 88.7 |
| Cyclin-dependent kinase 4, with cyclin D3 (CDK4, Homo sapiens, UniProt P11802) | 94.2 |
| Cyclin-dependent kinase 1, with cyclin B (CDK1, Homo sapiens, UniProt P06493) | 96.3 |
| STK17A (Homo sapiens, UniProt Q9UEE5) | 94.7 |
| PDPK1 (Homo sapiens, UniProt O15530) | 95.3 |
| RPS6KA5 (Homo sapiens, UniProt O75582) | 92.5 |
| Cyclin-dependent kinase 6, with cyclin D3 (CDK6, Homo sapiens, UniProt Q00534) | 86.5 |
| BLK (Homo sapiens, UniProt P51451) | 102 |
| PHKG1 (Homo sapiens, UniProt Q16816) | 94.2 |

Set 3
Compound: O=C(N[C@H]1CCCCC/C=C\C2C[C@@]2(C(=O)O)NC(=O)[C@@H]2C[C@@H](Oc3ccncc3)CN2C1=O)OC1CCCC1 (stereo partly shown)
Concentration: 1 µM
| target | read-out | technique | remaining binding [%] |
| --- | --- | --- | --- |
| AAK1 (Homo sapiens, UniProt Q2M2I8) | binding |  | 77 |
| NEK7 (Homo sapiens, UniProt Q8TDX7) | binding | competition with immobilised ligand | 100 |
| PIK3CA (Homo sapiens, UniProt P42336) | binding | competition with immobilised ligand | 98 |
| CSNK1D (Homo sapiens, UniProt P48730) | cell-free assay | competition with immobilised ligand | 81 |
| CHUK (Homo sapiens, UniProt O15111) | cell-free assay | competition with immobilised ligand | 100 |
| TSSK1B (Homo sapiens, UniProt Q9BXA7) | binding | competition with immobilised ligand | 77 |
| PIP4K2C (Homo sapiens, UniProt Q8TBX8) | binding | competition with immobilised ligand | 100 |
| EGFR (Homo sapiens, UniProt P00533, L858R) | cell-free assay | competition with immobilised ligand | 96 |
| STK38 (Homo sapiens, UniProt Q15208) | binding | competition with immobilised ligand | 97 |
| SBK1 (Homo sapiens, UniProt Q52WX2) | binding | competition with immobilised ligand | 100 |
| AXL (Homo sapiens, UniProt P30530) | binding | competition with immobilised ligand | 95 |
| PAK6 (Homo sapiens, UniProt Q9NQU5) | binding | competition with immobilised ligand | 100 |
| HCK (Homo sapiens, UniProt P08631) | cell-free assay | competition with immobilised ligand | 100 |
| MAP3K9 (Homo sapiens, UniProt P80192) | binding | competition with immobilised ligand | 97 |
| PLK2 (Homo sapiens, UniProt Q9NYY3) | binding | competition with immobilised ligand | 93 |
| EGFR (Homo sapiens, UniProt P00533, del747-750/T751S) | cell-free assay | competition with immobilised ligand | 49 |
| RIOK2 (Homo sapiens, UniProt Q9BVS4) | binding | competition with immobilised ligand | 100 |
| STK10 (Homo sapiens, UniProt O94804) | binding | competition with immobilised ligand | 99 |
| NEK9 (Homo sapiens, UniProt Q8TD19) | binding | competition with immobilised ligand | 100 |
| MET (Homo sapiens, UniProt P08581, Y1235D) | cell-free assay | competition with immobilised ligand | 81 |
| CHEK2 (Homo sapiens, UniProt O96017) | binding | competition with immobilised ligand | 100 |

Set 4
Compound: CC(C)CN(C)c1nc(N)c(C(=O)N=C(N)N)nc1Cl
Read-out: β-arrestin recruitment
Action: agonist
Technique: PRESTO-Tango
Concentration: 10 µM
Relative to: untreated
| target | fold over basal |
| --- | --- |
| DRD3 (Homo sapiens, UniProt P35462) | 1.2 |
| Probable G-protein coupled receptor 152 (GPR152, Homo sapiens, UniProt Q8TDT2) | 0.45 |
| Proteinase-activated receptor 3 (F2RL2, Homo sapiens, UniProt O00254) | 0.65 |
| TBXA2R (Homo sapiens, UniProt P21731) | 0.73 fold |
| CMKLR2 (Homo sapiens, UniProt P46091) | 0.79 |
| NPY2R (Homo sapiens, UniProt P49146) | 0.65 |
| ADRB2 (Homo sapiens, UniProt P07550) | 0.87 |
| NPY5R (Homo sapiens, UniProt Q15761) | 0.68 |
| C-C chemokine receptor type 2, isoform B (CCR2, Homo sapiens, UniProt P41597) | 0.79 |

Some of these lines once more (set 3):
| target | read-out | technique | remaining binding [%] |
| --- | --- | --- | --- |
| PLK2 (Homo sapiens, UniProt Q9NYY3) | binding | competition with immobilised ligand | 93 |
| PIK3CA (Homo sapiens, UniProt P42336) | binding | competition with immobilised ligand | 98 |
| TSSK1B (Homo sapiens, UniProt Q9BXA7) | binding | competition with immobilised ligand | 77 |
| PAK6 (Homo sapiens, UniProt Q9NQU5) | binding | competition with immobilised ligand | 100 |
